Measured values of several laboratories.
Every numbered part comes from another study and shows a few of its results, in no order. Changes are numbered by the printed parent chain.

Series 1
Target: CCND1, cyclin fold, Cln2 fusion (human)
Method: yeast growth competition, sequencing
Sample: yeast
Notes: weak parent motif
Reference: not given
Reading: higher = stronger binding
Parent: RB1 docking peptide (human); PKPLKKLRFDIEG; partner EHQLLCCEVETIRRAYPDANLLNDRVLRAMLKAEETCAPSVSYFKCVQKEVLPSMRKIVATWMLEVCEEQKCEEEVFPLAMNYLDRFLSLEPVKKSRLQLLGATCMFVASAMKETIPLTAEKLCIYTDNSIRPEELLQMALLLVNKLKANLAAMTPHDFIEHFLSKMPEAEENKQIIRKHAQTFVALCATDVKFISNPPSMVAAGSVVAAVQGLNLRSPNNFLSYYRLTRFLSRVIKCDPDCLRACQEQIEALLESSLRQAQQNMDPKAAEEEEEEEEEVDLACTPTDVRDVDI
| Substitution | normalised enrichment score |
| --- | --- |
| PKPLKSLRFDIEG [K6S] | 0.0155 |
| PKPLVKLRFDIEG [K5V] | -0.0789 |
| PKPYKKLRFDIEG [L4Y] | 0.636 |
| PKPLGKLRFDIEG [K5G] | -0.056 |
| SKPLKKLRFDIEG [P1S] | -0.454 |
| PKPLKKLREDIEG [F9E] | -0.526 |
| PEPLKKLRFDIEG [K2E] | 0.518 |
| PKPLKKLRQDIEG [F9Q] | 0.311 |
| YKPLKKLRFDIEG [P1Y] | -0.199 |
| PKPQKKLRFDIEG [L4Q] | -0.445 |
| PKPLKKLRTDIEG [F9T] | -0.28 |
| PKPLKKLRFDIDG [E12D] | -0.702 |
| PKPLKKLRFDYEG [I11Y] | 0.115 |

Series 2
Target: MAFG, bZIP domain (human)
Method: DHFR protein complementation
Sample: yeast
Notes: single substitutions, most at no-binding floor
Reference: wild-type JUN-FOS pair
Reading: higher = stronger binding
Parent: JUN, bZIP domain (human); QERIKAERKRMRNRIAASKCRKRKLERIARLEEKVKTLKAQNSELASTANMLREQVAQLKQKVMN; partner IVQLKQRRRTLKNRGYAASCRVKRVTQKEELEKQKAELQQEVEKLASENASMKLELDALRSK
| Substitution | binding fitness [natural log] |
| --- | --- |
| L31T | -1.53 |
| A49K | -1.36 |
| L45Q | -1.22 |
| K39I | -1.47 |
| E33D | -1.14 |
| A49H | -1.48 |
| A40M | -1.54 |
| E32H | -1.45 |
| A46S | -1.45 |

Series 3
Substance: PhoQ, residues 284 288 289 292 302 303 GASLAW
Method: Sort-seq
Measured: YFP reporter
Sample: E. coli
Notes: PhoQ-PhoP variant library
With: 10 µM Mg2+
Reference: high Mg2+ state
Reading: higher = stronger signaling
| target | fold induction |
| --- | --- |
| PhoP, residues 12 14 15 18 19 QYFSL (Escherichia coli, UniProt P23836) | 1.76 |
| PhoP, residues 12 14 15 18 19 NYFRM (Escherichia coli, UniProt P23836) | 9.25 |
| PhoP, residues 12 14 15 18 19 TQALL (Escherichia coli, UniProt P23836) | 11.1 |

Series 4
Target: Phosphate system positive regulatory protein PHO4, full length, GST-tagged (PHO4, Saccharomyces cerevisiae, UniProt P07270, residues 1-312)
Method: competition protein-binding microarray
Molecule type: double-stranded DNA, one strand shown
Sample: in vitro
Tested at: 2 µM
Notes: whole 60-bp probe, lowest competitor level
With: Cbf1 competitor, 0.05 µM
Reading: higher = stronger binding
Construct (chain): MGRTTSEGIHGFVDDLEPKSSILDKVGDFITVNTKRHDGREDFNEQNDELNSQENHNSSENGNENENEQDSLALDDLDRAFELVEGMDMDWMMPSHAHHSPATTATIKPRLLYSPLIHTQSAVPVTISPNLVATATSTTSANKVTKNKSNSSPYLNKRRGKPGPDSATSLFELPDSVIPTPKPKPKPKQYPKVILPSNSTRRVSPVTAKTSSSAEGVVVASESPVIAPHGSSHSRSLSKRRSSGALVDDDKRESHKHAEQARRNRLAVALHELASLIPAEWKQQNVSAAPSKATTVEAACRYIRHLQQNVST
| Strand | fluorescence intensity |
| --- | --- |
| CTGCTTCACAGTTTGCACGTAACTTGCTGAGGGGCCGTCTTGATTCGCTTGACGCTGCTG | 5040 a.u. |
| CTTTCCCGATCTTGCCGAGTGGGTGTAGCACATTTGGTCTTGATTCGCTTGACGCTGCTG | 4800 a.u. |
| CCAGGCTTAGATTTTCATGTGAAAAGATAATGTGTAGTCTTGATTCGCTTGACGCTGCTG | 3300 a.u. |
| CATACCCAACCTTGCTAGGTGGGTGAAGATATTTGTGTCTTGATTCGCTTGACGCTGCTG | 3650 a.u. |
| CTTCTGTAAATTTGAAAGGTGGGTGGACGCGCCCCGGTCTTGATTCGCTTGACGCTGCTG | 4180 a.u. |
| GTCTTGTCTCATTGTATCGTGGGTGTCCCCACTTCAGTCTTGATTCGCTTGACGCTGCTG | 7780 a.u. |
| CTAACGAAGGTTTGCTCTGTGGGTGACAAGCCAAGTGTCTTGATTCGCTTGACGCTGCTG | 3330 a.u. |
| CTAACGAAGGTTTGTGTTGTGGGTGACAAGCCAAGTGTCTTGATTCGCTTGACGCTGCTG | 4920 a.u. |
| GTCTTGTCTCATTGACGAGTGGGTGTCCCCACTTCAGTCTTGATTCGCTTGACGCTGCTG | 4200 a.u. |
| AATAAATACGAGCATCACAATACCCCAAGAGGAGAAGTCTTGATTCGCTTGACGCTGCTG | 3630 a.u. |
| CATACCCAACCTTTTCACGTGTAATAAGATATTTGTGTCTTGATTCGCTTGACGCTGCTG | 16600 a.u. |
| TTTAGGGCTACTTGGAATGTGATATCATTCTTACAAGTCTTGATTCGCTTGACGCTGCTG | 3920 a.u. |
| GTCTTGTCTCATTGTCACATCACTTTCCCCACTTCAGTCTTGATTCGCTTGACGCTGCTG | 4860 a.u. |
| TAACGAAAATGTTAGCACGTCGCGTTTATGGCCCCAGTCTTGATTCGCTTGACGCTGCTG | 6690 a.u. |
| CTACGGTTCCTGCCGCTCGTGGGTACCCCAAGCAAAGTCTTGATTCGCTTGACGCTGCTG | 9700 a.u. |
| TAAACGAGTACTTCACACGTAGGCCAAAGCACTCCAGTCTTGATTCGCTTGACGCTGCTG | 4820 a.u. |

For quick reference, copied from above (series 4):
| Strand | fluorescence intensity |
| --- | --- |
| CTTTCCCGATCTTGCCGAGTGGGTGTAGCACATTTGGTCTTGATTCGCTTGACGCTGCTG | 4800 a.u. |
| CCAGGCTTAGATTTTCATGTGAAAAGATAATGTGTAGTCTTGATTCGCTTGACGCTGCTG | 3300 a.u. |
| CATACCCAACCTTGCTAGGTGGGTGAAGATATTTGTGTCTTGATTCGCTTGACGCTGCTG | 3650 a.u. |
| CTTCTGTAAATTTGAAAGGTGGGTGGACGCGCCCCGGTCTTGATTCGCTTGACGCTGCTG | 4180 a.u. |
| GTCTTGTCTCATTGTATCGTGGGTGTCCCCACTTCAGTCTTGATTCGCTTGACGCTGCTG | 7780 a.u. |
| CTAACGAAGGTTTGCTCTGTGGGTGACAAGCCAAGTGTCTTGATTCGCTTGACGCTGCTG | 3330 a.u. |
